Measurements pooled from the literature.
Protocols differ between the studies behind these lines. ± marks the error that the study gave.
KLRK1 with MICA: NKG2-D type II integral membrane protein, with MICA (KLRK1, Homo sapiens, UniProt P26718)
lasR: Transcriptional activator protein LasR (lasR, Pseudomonas aeruginosa, UniProt P25084)
KCNQ3/KCNQ2: Voltage-gated potassium channel, KQT; KCNQ2(Kv7.2)/KCNQ3(Kv7.3) (KCNQ3/KCNQ2, Homo sapiens, UniProt O43525+O43526)
Oprd1: Delta-type opioid receptor (Oprd1, Mus musculus, UniProt P32300)
APP amyloid-beta 1-40 oligomers: Amyloid-beta precursor protein, amyloid-beta 1-40 oligomers (APP, Homo sapiens, UniProt P05067)
pafA R164A: Alkaline phosphatase PafA (pafA, Elizabethkingia meningoseptica, UniProt Q9KJX5, R164A)

Structure (SMILES)	target	assay	system	conditions	how to read	endpoint	value
CC(C)C[C@H](NC=O)C(=O)N[C@@H](C)C(=O)N[C@@H](C)C(=O)N[C@@H](CC(=O)O)C(=O)N[C@@H](CC(C)C)C(=O)N[C@@H](CC(C)C)C(=O)N[C@@H](C)C(=O)N[C@@H](C)C(=O)N[C@@H](CC(C)C)C(=O)NCC(=O)N[C@@H](CC(=O)O)C(=O)N[C@@H](CC(C)C)C(=O)N[C@@H](CC(C)C)C(=O)N[C@@H](CCCCN)C(=O)N[C@@H](Cc1c[nH]c2ccccc12)C(=O)N[C@@H](CC(C)C)C(=O)N[C@@H](CC(C)C)C(=O)N[C@@H](CC(=O)O)C(=O)N[C@@H](C)C(=O)N[C@@H](CC(C)C)C(=O)N[C@@H](C)C(=O)N[C@@H](CCCCN)C(=O)N[C@@H](CC(C)C)C(=O)N[C@@H](C)C(=O)N[C@@H](CCCCN)C(=O)N[C@@H](CCCCN)C(=O)O (racemic)	POPC membrane	membrane binding, stopped-flow FRET	–	mole fraction units, room temperature	–	binding free energy	-5.7 kcal/mol
CC(C)C[C@H](NC(=O)[C@@H](N)Cc1ccccc1)C(=O)O	Amyloid-beta precursor protein, Aβ40 (APP, Homo sapiens, UniProt P05067)	binding, ion mobility MS, item: Aβ monomer	–	at least 1 ligands	–	monomer bound	34 ± 12%
CN(C)C(=O)[C@@H](NC(=O)c1cnccc1-c1ccc(C(F)(F)F)cc1)c1cc(C(F)(F)F)cc(C(F)(F)F)c1	KLRK1 with MICA	ligand binding, inhibitor, TR-FRET	HEK293 expressing NKG2D and DAP10	with: MICA-Alexa647	relative to: positive control	maximum inhibition	102%
CCCCCCc1cn(-c2cccc(C(=O)N[C@H]3CCOC3=O)c2)nn1	lasR	reporter gene, agonist	Escherichia coli DH5α pJN105L/pSC11	10 µM	relative to: OdDHL 100 µM	activation	0%
CCN(Cc1ccccc1)C(=O)CCc1nc(CN2CCN(C(=O)Cc3ccc(OC)c(OC)c3)CC2)no1	KCNQ3/KCNQ2	whole-cell patch clamp	CHO stable	100 nM	–	V1/2 of activation	-21.1 ± 2.39 mV
O=C(O)c1ccccc1-c1c2ccc(=O)c([As]3SCCS3)c-2oc2c([As]3SCCS3)c(O)ccc12	Tyrosine-protein phosphatase non-receptor type 11 (Ptpn11, Mus musculus, UniProt P35235)	–	–	1 µM, catalytic domain, with: pNPP	–	time to maximal inhibition	~30 min
CCCCc1cn(-c2ccc(C(=O)N[C@H]3CCOC3=O)cc2)nn1	lasR	reporter gene, agonist	Escherichia coli, DH5α pJN105L/pSC11	100 µM	relative to: OdDHL at same concentration	activation	0%
CN(C)C(=O)[C@H]1NC(=O)c2cnccc2-c2ccc(cc2)C(F)(F)CCCC(F)(F)c2cccc1c2	KLRK1 with MICA	ligand binding, inhibitor, TR-FRET	HEK293 expressing NKG2D and DAP10	with: MICA-Alexa647	relative to: positive control	maximum inhibition	99%
CC[C@H](C)[C@H](NC(=O)[C@H](Cc1c[nH]cn1)NC(=O)[C@H](CCCCNC(=O)[C@@H](NC(=O)[C@H](CCCCN)NC(=O)[C@H](Cc1ccccc1)NC(=O)[C@H](CCCCNC(=O)[C@H](CC(C)C)NC(=O)[C@@H]1CCCN1C(=O)[C@H](CCCCN)NC(=O)CCS[C@@H]1O[C@H](CO)[C@H](O)[C@H](O)[C@H]1O)NC(=O)[C@H](CC(C)C)NC(=O)[C@@H]1CCCN1C(=O)[C@H](CCCCN)NC(=O)CCS[C@@H]1O[C@H](CO)[C@H](O)[C@H](O)[C@H]1O)[C@@H](C)CC)NC(=O)[C@@H](NC(=O)[C@H](CCCCN)NC(=O)[C@H](Cc1ccccc1)NC(=O)[C@H](CCCCNC(=O)[C@H](CC(C)C)NC(=O)[C@@H]1CCCN1C(=O)[C@H](CCCCN)NC(=O)CCS[C@@H]1O[C@H](CO)[C@H](O)[C@H](O)[C@H]1O)NC(=O)[C@H](CC(C)C)NC(=O)[C@@H]1CCCN1C(=O)[C@H](CCCCN)NC(=O)CCS[C@@H]1O[C@H](CO)[C@H](O)[C@H](O)[C@H]1O)[C@@H](C)CC)C(N)=O	PA-I galactophilic lectin (lecA, Pseudomonas aeruginosa, UniProt Q05097)	ITC	–	concentration not given, pH 7.5, 25 °C	–	binding enthalpy (ΔH)	-9.1 ± 0.2 kcal/mol
CC(=O)NC(Cc1ccc(Br)c(Cl)c1)C(=O)N[C@@H](C)C(=O)N1CCC[C@H]1C(=O)N1CCC[C@H]1C(=O)N[C@@H](CCC(=O)O)C(=O)N[C@@H](Cc1c[nH]cn1)C(=O)N[C@@H](CO)C(=O)N[C@H](C(=O)N[C@@H](C)C(N)=O)[C@@H](C)OP(=O)(O)O (stereo partly shown)	Serine/threonine-protein kinase pim-1 (PIM1, Homo sapiens, UniProt P11309)	enzyme activity, inhibitor	–	10 µM	–	inhibition	0.37%
C[n+]1ccc(C(=O)NC2CCC3(O)C4Cc5ccc(O)c6c5C3(CC[N+]4(C)CC3CC3)C2O6)cc1 (stereo not shown)	Oprd1	G protein activation, agonist	–	–	relative to: 3 µM SNC80	Emax	6.76 ± 2.02%
CN(C)C(=O)[C@@H](NC(=O)c1cnccc1-c1ccc(C(F)(F)F)cc1)c1cc(Cl)cc(C(F)(F)F)c1	KLRK1 with MICA	ligand binding, inhibitor, TR-FRET	HEK293 expressing NKG2D and DAP10	with: MICA-Alexa647	relative to: positive control	maximum inhibition	101 ± 30.3%
C[C@@]1(O)CC[C@H]2[C@H](CC[C@@H]3[C@@H]2CC[C@]2(C)[C@@H](C(=O)Cn4cccn4)CC[C@@H]32)C1	Membrane progesterone receptor epsilon (Paqr9, Mus musculus, UniProt Q6TCG2)	pPKA/PKA immunoblot	MDA-MB-231 expressing Paqr9-GFP	30 nM, 20 min	relative to: control	PKA activation	98.2 ± 8.41%
CCN(CC)CCOc1ccc(-c2nnn(Cc3ccc(OC)cc3)c2N)cc1	Phosphatidylethanolamine-binding protein 1, with c-Raf (Homo sapiens, UniProt P30086)	RKIP-c-Raf interaction, co-immunoprecipitation	HEK293T	10 µM, 4 h	–	binding	no effect
Nc1ccc(C(O)(C(F)(F)F)C(F)(F)F)cc1	APP amyloid-beta 1-40 oligomers	binding, STD NMR	–	highest STD	–	STD NMR signal	0%
COC(=O)C1C(OC(c2ccc(Cl)cc2)c2ccc(Cl)cc2)CC2CCC1N2C (single isomer, unassigned)	Alpha-2A adrenergic receptor (ADRA2A, Homo sapiens, UniProt P08913)	binding, radioligand displacement	–	inactive if below 75% at 10000 nM, with: [3H]MK-912	–	Ki	inactive

Structure (SMILES)	target	assay	system	conditions	how to read	endpoint	value
CN(C)C(=O)[C@@H](NC(=O)c1ccccc1-c1ccc(C(F)(F)F)cc1)c1cccc(C(F)(F)F)c1	KLRK1 with MICA	–	–	–	–	Emax	101%
NC(=O)N/N=C/c1ccc(OCc2ccccc2)cc1	Amine oxidase [flavin-containing] A (MAOA, Homo sapiens, UniProt P21397)	enzyme activity, inhibitor, absorbance	–	10 µM	–	remaining activity	81.5%
CN1/C(=C/C=C/C=C/C2=[N+](CCCCCC(=O)NCCCCCCCCN3[C@H]4[C@H](O)[C@@H](O)[C@H](O[C@@H]5OC[C@@H](O)[C@H](O)[C@H]5O)C[C@H]43)c3ccccc3C2(C)C)C(C)(C)c2ccccc21 (stereo partly shown)	endo-1,4-beta-xylanase (Aspergillus aculeatus, UniProt A0A1L9WG58)	covalent inhibitor	–	pH 5.0, with: 4MU-β-D-xylobioside	–	kinact	0.000217 s⁻¹
CCCCC/C=C\C/C=C\C/C=C\C/C=C\CCCC(=O)NC(CO)CO	KCNQ3/KCNQ2	two-electrode voltage clamp	Xenopus oocytes	10 µM	–	maximal conductance	no effect
COP(=O)(O)Oc1ccc([N+](=O)[O-])cc1	pafA R164A	–	Chryseobacterium meningosepticum	pH 8.0	relative to: wild type over mutant kcat/KM	relative catalytic efficiency	1.2
CC(C)C[C@@H](N)C(=O)NCC(=O)N[C@H](C)C(=O)N[C@H](CO)C(=O)N[C@H](Cc1c[nH]c2ccccc12)C(=O)N[C@H](Cc1c[nH]cn1)C(=O)N[C@H](CCCNC(=N)N)C(=O)N1CCC[C@@H]1C(=O)N[C@H](CC(=O)O)C(=O)N[C@H](CCCCN)C(=O)N[C@H](CCCCN)C(=O)N[C@H](CCCNC(=N)N)C(=O)NCCCCCC(=O)N[C@@H](CCCCN)C(=O)N[C@@H](CCCNC(=N)N)C(=O)N[C@@H](CCCCN)C(=O)N[C@H](C(=O)N[C@@H](CC(N)=O)C(=O)N[C@@H](CC(N)=O)C(=O)N[C@@H](CC(N)=O)C(=O)N1CCC[C@H]1C(=O)N[C@@H](CCCNC(=N)N)C(=O)N[C@H](C(=O)N[C@@H](CS)C(N)=O)[C@@H](C)O)[C@@H](C)O	C-X-C chemokine receptor type 4 (CXCR4, Homo sapiens, UniProt P61073, Y45A)	12G5 antibody binding	–	200 nM, mutant Y45A	relative to: wild type	binding affinity change	decreased
O=[N+]([O-])c1ccc(OP(=O)(O)O)cc1	pafA R164A	substrate	–	pH 8.0	–	kcat	6.6 s^–1
O=C(N[C@H]1CCOC1=O)c1cccc(-n2cc(C3CCCC3)nn2)c1	lasR	reporter gene, agonist	Escherichia coli DH5α pJN105L/pSC11	10 µM	relative to: OdDHL 100 µM	activation	0%
CC(=O)N[C@@H](CC(C)C)C(=O)N[C@@H](C)C(=O)N[C@@H](C)C(=O)NN(CCC(=O)N(C)C)C(=O)CCl	Genome polyprotein, 3C protease (Human hepatitis A virus genotype IB, UniProt P08617, C1543S)	inhibitor	Hepatitis A virus	–	–	kinact/KI	680 M⁻¹ s⁻¹
O=C1CCN(CCCC(c2ccc(F)cc2)c2ccc(F)cc2)CC1	APP amyloid-beta 1-40 oligomers	binding, STD NMR	–	highest STD	–	STD NMR signal	4.31%
O=C(Nc1ccccc1NC(=O)c1cccc(Cl)c1)c1cccc(Cl)c1	lasR	reporter gene, antagonist	PAO-JP2 plasI-LVAgfp	–	–	Hill slope	-3
Nc1ncnc2c1ncn2C1OC(CSCCCCNCc2cccc(-c3ccc(Cl)cc3)c2)C(O)C1O (stereo not shown)	DNA adenine methyltransferase CamA (Clostridioides difficile, UniProt Q183J3)	methyltransferase activity, inhibitor	–	concentration not given	relative to: cpd over JNJ-64619178	relative inhibition	2.5
COP(=O)(O)O	Alkaline phosphatase PafA (pafA, Elizabethkingia meningoseptica, UniProt Q9KJX5, N100A)	–	Chryseobacterium meningosepticum	pH 8.0	relative to: wild type over mutant kcat/KM	relative catalytic efficiency	390
CC[C@H](C)[C@@H]1NC(=O)[C@H](Cc2ccc(O)cc2)NC(=O)[C@@H](N)CSSC[C@@H](C(=O)N2CCC[C@H]2C(=O)N2CCC[C@H]2C(=O)NCC(N)=O)NC(=O)[C@H](CC(N)=O)NC(=O)[C@H](CCC(N)=O)NC1=O	Oxytocin receptor (OXTR, Homo sapiens, UniProt P30559)	Ca2+ mobilisation, agonist	CHO cells	–	–	Emax	3480 RFU
CCCC[C@H](NC(=O)[C@H](Cc1ccccc1)NC(=O)CNC(=O)[C@@H](C)NC(=O)[C@@H](N)Cc1ccc(O)cc1)C(=O)N1CCC[C@H]1C(=O)N[C@@H](CC(C)C)C(=O)N[C@@H](CO[C@@H]1O[C@H](CO)[C@@H](O)[C@H](O)[C@H]1O)C(=O)N[C@@H](Cc1c[nH]c2ccccc12)C(=O)NCc1cc(C(F)(F)F)cc(C(F)(F)F)c1	Oprd1	smooth muscle contraction inhibition, agonist	mouse vas deferens	–	relative to: DPDPE	Emax	100%

Some of these lines once more:
Structure (SMILES)	target	assay	system	conditions	how to read	endpoint	value
CN(C)C(=O)[C@@H](NC(=O)c1cnccc1-c1ccc(C(F)(F)F)cc1)c1cc(C(F)(F)F)cc(C(F)(F)F)c1	KLRK1 with MICA	ligand binding, inhibitor, TR-FRET	HEK293 expressing NKG2D and DAP10	with: MICA-Alexa647	relative to: positive control	maximum inhibition	102%
COP(=O)(O)O	Alkaline phosphatase PafA (pafA, Elizabethkingia meningoseptica, UniProt Q9KJX5, N100A)	–	Chryseobacterium meningosepticum	pH 8.0	relative to: wild type over mutant kcat/KM	relative catalytic efficiency	390
